Results from different studies.
Compare with care: the assays were run in different laboratories.
Organism: Pseudomonas aeruginosa

C[C@H]1COc2c(N3CCN(C)CC3)c(F)cc3c(=O)c(C(=O)N[C@@H](CCCNC(=N)N)C(=O)N[C@@H](Cc4ccc(-c5ccccc5)cc4)C(=O)N[C@@H](CCCNC(=N)N)C(=O)N[C@@H](Cc4ccc(-c5ccccc5)cc4)C(=O)N[C@@H](CCCNC(=N)N)C(N)=O)cn1c23 — MIC (broth microdilution; ATCC 3197; 18 h, 37 °C): 20 µM
CC[C@H](C)[C@@H]1NC(=O)[C@H](CC(C)C)NC(=O)[C@@H](NC(=O)[C@H](CO)NC(=O)[C@H](CCCNC(=N)N)NC(=O)[C@@H](N)CO)CSSC[C@H](NC(=O)[C@H](CO)NC(=O)[C@H](CCCNC(=N)N)NC(=O)[C@@H](N)CO)C(=O)N[C@@H](CC(C)C)C(=O)N[C@@H]([C@@H](C)CC)C(=O)N[C@@H](C(C)C)C(=O)N[C@H](C(=O)N[C@@H](CCC(N)=O)C(=O)N[C@@H](CCCNC(=N)N)C(=O)N[C@@H](CC(C)C)C(=O)N[C@@H](Cc2ccccc2)C(N)=O)CSSC[C@@H](C(=O)N[C@@H](CCC(N)=O)C(=O)N[C@@H](CCCNC(=N)N)C(=O)N[C@@H](CC(C)C)C(=O)N[C@@H](Cc2ccccc2)C(N)=O)NC(=O)[C@H](C(C)C)NC1=O — MIC (broth microdilution; ATCC 27853): > 100 µg/mL
CCCCCCCCCC(=O)NCCCC[C@H](NC(=O)[C@H](CCCCN)NC(=O)[C@@H]1CSCC(=O)N[C@@H](CCCCN)C(=O)N[C@@H](CC(C)C)C(=O)N[C@@H](CCCCN)C(=O)N[C@H]2CCCCNC(=O)[C@H](CCCCN)NC(=O)[C@H](CC(C)C)NC(=O)[C@H](CCCCN)NC(=O)CSC[C@H](NC(=O)[C@H](CC(C)C)NC(=O)[C@H](CC(C)C)NC(=O)[C@H](CCCCN)NC2=O)C(=O)N[C@@H](CC(C)C)C(=O)N[C@@H](CC(C)C)C(=O)N[C@@H](CC(C)C)C(=O)N1)C(N)=O — MIC (PAO1; 18 h): 32 µg/mL
CC1C(=NOCc2cn(-c3ccccc3)nn2)C(C)C(c2ccc(Br)cc2)OC1c1ccc(Br)cc1 (stereo not drawn) — MIC (microbial growth, broth dilution; MTCC741; 24 h): 6.3 µg/mL
CC(C)[C@H](NC(=O)[C@H](CCCNC(=N)N)NC(=O)[C@H](CCCNC(=N)N)NC(=O)[C@@H](NC(=O)[C@H](C)NC(=O)[C@H](CC(N)=O)NC(=O)[C@H](CCCNC(=N)N)NC(=O)[C@@H](NC(=O)[C@H](CCCNC(=N)N)NC(=O)[C@H](CCCNC(=N)N)NC(=O)[C@@H](NC(=O)[C@@H](NC(=O)[C@H](CCCNC(=N)N)NC(=O)[C@H](CCCNC(=N)N)NC(=O)[C@H](Cc1c[nH]c2ccccc12)NC(=O)[C@H](Cc1c[nH]c2ccccc12)NC(=O)CN)[C@@H](C)O)C(C)C)C(C)C)C(C)C)C(=O)O — MIC (ATCC 27853; 18 h, 37 °C): 8 µg/mL
CC[C@H](C)[C@H](NC(=O)[C@H](CCCCN)NC(=O)[C@H](CCC(=O)O)NC(=O)[C@H](CCCCN)NC(=O)[C@H](CO)NC(=O)[C@H](CCCCN)NC(=O)[C@H](CCCNC(=N)N)NC(=O)[C@H](Cc1ccccc1)NC(=O)[C@H](Cc1ccccc1)NC(=O)[C@H](CC(=O)O)NC(=O)CNC(=O)[C@H](CC(C)C)NC(=O)[C@@H](N)CC(C)C)C(=O)NCC(=O)N[C@@H](CCCCN)C(=O)N[C@@H](CCC(=O)O)C(=O)N[C@@H](Cc1ccccc1)C(=O)N[C@@H](CCCCN)C(=O)N[C@@H](CCCNC(=N)N)C(=O)N[C@H](C(=O)N[C@H](C(=O)N[C@@H](CCC(N)=O)C(=O)N[C@@H](CCCNC(=N)N)C(=O)N[C@H](C(=O)N[C@@H](CCCCN)C(=O)N[C@@H](CC(=O)O)C(=O)N[C@@H](Cc1ccccc1)C(=O)N[C@@H](CC(C)C)C(=O)N[C@@H](CCCNC(=N)N)C(=O)N[C@@H](CC(N)=O)C(=O)N[C@@H](CC(C)C)C(=O)N[C@H](C(=O)N1CCC[C@H]1C(=O)N[C@@H](CCCNC(=N)N)C(=O)N[C@H](C(=O)N[C@@H](CCC(=O)O)C(=O)N[C@@H](CO)C(=O)O)[C@@H](C)O)C(C)C)[C@@H](C)CC)C(C)C)[C@@H](C)CC — MIC (PAO1 vacJ mutant, RPMI with 5% LB): 8 µM
CC[C@@H](C)[C@@H](NC(=O)[C@@H](C)NC(=O)[C@@H](CCCCN)NC(=O)[C@@H](CC(C)C)NC(=O)[C@@H](C)NC(=O)[C@H](NC(=O)[C@@H](Cc1c[nH]cn1)NC(=O)[C@@H](CC(C)C)NC(=O)[C@H](NC(=O)[C@H](NC(=O)[C@@H](CCCCN)NC(=O)[C@@H](CCCCN)NC(=O)[C@@H](C)NC(=O)[C@@H](CO)NC(=O)[C@@H](CCCCN)NC(=O)[C@@H](Cc1ccccc1)NC(=O)[C@H](NC(=O)[C@@H](CCCCN)NC(=O)[C@@H](CC(C)C)NC(=O)[C@@H](Cc1ccccc1)NC(=O)[C@@H](CO)NC(=O)[C@@H](CCCCN)NC(=O)[C@@H](Cc1c[nH]c2ccccc12)NC(=O)[C@@H](CCCCN)NC(C)=O)[C@H](C)O)[C@H](C)O)C(C)C)[C@H](C)O)C(=O)N[C@H](CO)C(=O)N[C@H](CO)C(N)=O — MIC (broth microdilution; PAO1; 24 h, 37 °C): 2.6 µM
COc1cc2c(=O)c(C(=O)NCCNCCO)cn(Cc3ccccc3)c2cc1OCc1cccc(Cl)c1 — MIC (ATCC 27853; ≥80% growth inhibition): < 0.25 µg/mL
CC(C)C[C@H](NC(=O)[C@@H]1CSCC(=O)N[C@@H](CCCCN)C(=O)N[C@@H](CC(C)C)C(=O)N[C@@H](CC(C)C)C(=O)NCCCC[C@@H]2NC(=O)[C@H](CC(C)C)NC(=O)[C@H](CC(C)C)NC(=O)[C@H](CCCCN)NC(=O)CSC[C@H](NC(=O)[C@H](CC(C)C)NC(=O)[C@H](CC(C)C)NC(=O)[C@H](CCCCN)NC2=O)C(=O)N[C@@H](CCCCN)C(=O)N[C@@H](CCCCN)C(=O)N[C@@H](CCCCN)C(=O)N1)C(N)=O — MIC (PAO1; 18 h): 256 µg/mL
CC[C@H](C)[C@@H]1NC(=O)CNC(=O)[C@H](CCCCN)NC(=O)[C@H](C)NC(=O)[C@H](CCC(=O)O)NC(=O)[C@H](Cc2ccccc2)NC(=O)[C@H](CO)NC(=O)[C@H](CC(C)C)NC(=O)[C@H](C(C)C)NC(=O)[C@H](CC(=O)O)NC(=O)[C@@H](NC(=O)[C@@H](NC(=O)[C@@H](N)C(C)C)[C@@H](C)O)CSSC[C@@H]2NC(=O)[C@H](CO)NC(=O)CNC(=O)CNC(=O)[C@H](CCCCN)NC(=O)[C@H](CCCCN)NC(=O)[C@H](CCCNC(=N)N)NC(=O)[C@H](CC(C)C)NC(=O)[C@H](C)NC(=O)[C@H]([C@@H](C)CC)NC(=O)[C@@H]3CSSC[C@@H](C(=O)N[C@@H](CCCNC(=N)N)C(=O)N[C@@H](CC(N)=O)C(=O)O)NC(=O)[C@H](C(C)C)NC(=O)[C@H](CSSC[C@H](NC(=O)[C@H](C)NC(=O)[C@H](CO)NC(=O)[C@H](Cc4c[nH]cn4)NC(=O)[C@H](CC(N)=O)NC(=O)[C@H](C(C)C)NC(=O)[C@H](C)NC1=O)C(=O)N[C@@H](C)C(=O)N[C@@H](CC(C)C)C(=O)N[C@@H](Cc1c[nH]cn1)C(=O)N3)NC(=O)[C@H](C(C)C)NC(=O)CNC(=O)[C@H](CC(N)=O)NC(=O)[C@H](CCC(N)=O)NC2=O — MIC (broth microdilution; KCTC 1637; 16 h, 37 °C): 3.1 µM
CC(=O)OCc1cc(-c2nc3ccccc3n(-c3ccc([N+](=O)[O-])cc3[N+](=O)[O-])c2=O)nn1-c1ccccc1 — MIC (microbial growth; MDR): 125 µg/mL
CC(C)C[C@H](NC(=O)[C@H](CCCCNC(=O)[C@H](CCCCN)NC(=O)[C@H](CC(C)C)NC(=O)[C@H](CCCCNC(=O)[C@H](CCCCN)NC(=O)[C@H](CC(C)C)NC(=O)[C@H](CCCCNC(=O)[C@H](CCCCN)NC(=O)[C@@H](N)CC(C)C)NC(=O)[C@H](CCCCN)NC(=O)[C@@H](N)CC(C)C)NC(=O)[C@H](CCCCN)NC(=O)[C@H](CC(C)C)NC(=O)[C@H](CCCCNC(=O)[C@H](CCCCN)NC(=O)[C@@H](N)CC(C)C)NC(=O)[C@H](CCCCN)NC(=O)[C@@H](N)CC(C)C)NC(=O)[C@H](CCCCN)NC(=O)[C@H](CC(C)C)NC(=O)[C@H](CCCCNC(=O)[C@H](CCCCN)NC(=O)[C@H](CC(C)C)NC(=O)[C@H](CCCCNC(=O)[C@H](CCCCN)NC(=O)[C@@H](N)CC(C)C)NC(=O)[C@H](CCCCN)NC(=O)[C@@H](N)CC(C)C)NC(=O)[C@H](CCCCN)NC(=O)[C@H](CC(C)C)NC(=O)[C@H](CCCCNC(=O)[C@H](CCCCN)NC(=O)[C@@H](N)CC(C)C)NC(=O)[C@H](CCCCN)NC(=O)[C@@H](N)CC(C)C)C(=O)N[C@@H](CCCCN)C(N)=O — MIC (PAO1, LB medium): 2 µM

Excerpt of the above:
CC(=O)OCc1cc(-c2nc3ccccc3n(-c3ccc([N+](=O)[O-])cc3[N+](=O)[O-])c2=O)nn1-c1ccccc1 — MIC (microbial growth; MDR): 125 µg/mL
